Experimental data gathered from unrelated publications.
A part holds a random share of what one study measured.

Series 1 — technique: RNA Bind-n-Seq; form: RNA; matrix: in vitro; concentration: 200 nM; notes: whole 134-nt RNA, ends assumed; with: 150 mM LiCl; reference: input library; direction: higher = stronger binding; library: 7-deaza-guanosine replaces G
Target: Ras GTPase-activating protein-binding protein 1, full length (G3BP1, Homo sapiens, UniProt Q13283)
Sequence of UniProt Q13283 (whole entry, looked up): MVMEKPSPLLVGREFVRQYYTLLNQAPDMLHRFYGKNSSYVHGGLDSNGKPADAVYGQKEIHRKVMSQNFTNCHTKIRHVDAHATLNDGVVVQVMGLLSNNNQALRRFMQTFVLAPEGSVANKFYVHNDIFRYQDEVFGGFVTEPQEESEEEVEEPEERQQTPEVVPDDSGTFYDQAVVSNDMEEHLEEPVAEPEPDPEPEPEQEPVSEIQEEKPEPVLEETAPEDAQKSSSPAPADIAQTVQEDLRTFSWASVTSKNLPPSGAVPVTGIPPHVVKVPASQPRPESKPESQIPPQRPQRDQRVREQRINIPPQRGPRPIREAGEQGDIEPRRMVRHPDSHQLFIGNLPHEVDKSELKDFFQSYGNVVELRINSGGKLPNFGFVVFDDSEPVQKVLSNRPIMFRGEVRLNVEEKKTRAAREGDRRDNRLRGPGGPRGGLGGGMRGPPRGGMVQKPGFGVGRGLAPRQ
Shared flanks, not repeated: GGGAGUUCUACAGUCCGACGAUC … UGGAAUUCUCGGGUGUCAAGG
| Oligonucleotide | log2 enrichment |
| --- | --- |
| AGUCCUGUGCUACACAUCGUAUGUACCGAAUCGGGGAAAAAAAGGGGAGGGGUGGGGAAAGUAUUAUGUUACGCCGUUCGGAUCUGCACU | -0.189 |
| UCCUCAAGUCCUGUGCUACACAUCGUAUGUACCGAAUCGGCGGCGGGGCGGGAAAGUAUUAUGUUACGCCGUUCGGAUCUGCACUUCCAG | 0.942 |
| GUCCUGUGCUACACAUCGUAUGUACCGAAUCAAAUUUUUAAAUUUAAACCCCCCCAAAAAAGUAUUAUGUUACGCCGUUCGGAUCUGCAC | 1.22 |
| CACAGACAACACGCACCCACACAGACACAGAGGGAAGGGGUUGGGAUGGGGACAGGGUGCACAGCAGGACGGGGUAGGACCCCAGCCCCU | 0.0683 |
| CAAGUCCUGUGCUACACAUCGUAUGUACCGAAUCGGAAAAAAAGGUUUUUGGAGGAAAGUAUUAUGUUACGCCGUUCGGAUCUGCACUUC | -0.971 |
| CUUCUUGCAUGCUCGGCUCCGGACAGCUACGCUUCGGCAUGACGCAGACGGGCAGGCCACCCUGUUGAACCUCCUGCUGCGGAAUUACCU | 0.249 |
| UCAAGUCCUGUGCUACACAUCGUAUGUACCGAAUCGGGGUUGGGUUGGGGUUGGAAAGUAUUAUGUUACGCCGUUCGGAUCUGCACUUCC | 0.128 |
| CCUCAAGUCCUGUGCUACACAUCGUAUGUACCGAAUCGGGAGGGGAGGAGGGAAAGUAUUAUGUUACGCCGUUCGGAUCUGCACUUCCAG | 0.676 |
| UCAGAAGGUCUUUUAAGUCUGACCACCCAGCUUGUCAAGGAAAAACUCUCCACCUGUGAAGCAGAGGACAUCGCCACCUAUGAGCAGAAU | 0.845 |
| CAAGUCCUGUGCUACACAUCGUAUGUACCGAAUCGGGAGGGUUUUUUUGGGUGGGAAAGUAUUAUGUUACGCCGUUCGGAUCUGCACUUC | 0.74 |
| CAAGUCCUGUGCUACACAUCGUAUGUACCGAAUCGGCCCGGGGCCCGGGGCCCGGAAAGUAUUAUGUUACGCCGUUCGGAUCUGCACUUC | -0.625 |

Series 2 — technique: protein-binding microarray; form: double-stranded DNA, one strand shown; matrix: in vitro; concentration: 250 nM; notes: 60-bp whole probe; with: salmon DNA 0.4 mg/ml; reference: random background probes; direction: higher = stronger binding; shared flanks, not repeated: GCCTAGCAC … GTCTTGATTCGCTTGACGCTGCTG
Target: Interferon regulatory factor 7, full length, phosphomimetic (IRF7, Homo sapiens, UniProt Q92985, residues 1-503, S101K/S471D/S472D/S475D/S476D/S477D/S483D/S484D/S487D)
Construct (chain): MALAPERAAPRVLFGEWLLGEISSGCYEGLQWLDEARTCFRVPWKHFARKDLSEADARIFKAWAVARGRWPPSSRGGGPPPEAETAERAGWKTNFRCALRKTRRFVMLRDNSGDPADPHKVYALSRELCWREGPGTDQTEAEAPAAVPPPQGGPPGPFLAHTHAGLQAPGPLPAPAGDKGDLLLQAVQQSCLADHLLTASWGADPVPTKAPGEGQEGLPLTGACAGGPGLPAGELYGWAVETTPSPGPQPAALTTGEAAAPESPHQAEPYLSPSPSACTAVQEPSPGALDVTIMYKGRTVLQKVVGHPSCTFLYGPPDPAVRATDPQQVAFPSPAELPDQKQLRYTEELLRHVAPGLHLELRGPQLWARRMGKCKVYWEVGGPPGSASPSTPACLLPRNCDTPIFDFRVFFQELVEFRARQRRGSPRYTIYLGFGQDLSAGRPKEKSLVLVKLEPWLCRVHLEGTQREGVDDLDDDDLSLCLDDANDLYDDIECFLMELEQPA
| Oligonucleotide | log fluorescence [z-score] |
| --- | --- |
| GACGGACTGGTCTATCGGGACGTGCTA | -0.783 |
| TTAGTTATCGGTCTCGGTTAGTGCTAG | 1.81 |
| TTAGGTCTCATTCTCCTTTAGTGCTAG | 1.26 |
| ACCATTGTGGTTTTCATTATGTGCTAG | -0.146 |
| TTTACTCTCTACATGGGTATGTGCTAG | 0.462 |
| GACGAACTGACTCTCGAGACGTGCTAG | -0.0787 |
| TTAGGTATCCATATCCTTTAGTGCTAG | 0.553 |
| TTAGGTTTCGGGACAGGGTTAGTGCTA | 4.83 |
| TTAGAACTGAGTCTCGATTAGTGCTAG | 1.28 |
| TCATGTTTGGTCCTGAAACTGTGCTAG | 0.457 |
| TCAACTTTATGTAGGAAACTGTGCTAG | 0.0909 |
| GACGGTATCGGAGTGGGGACGTGCTAG | -0.401 |
| TTAGGACTGGGGTATCGGATAGTGCTA | -0.363 |
| TTAGGACGGGGACTGGGTTAGTGCTAG | 0.159 |
| GACGGTATCCTTCTCCTGACGTGCTAG | -0.0331 |
| TTTTTTTTCTAACTAAAAATGTGCTAG | 1.3 |
| TTAGATCTCAGTTTCGATCAGTGCTAG | 3.81 |
| ATGATGTGTCAAAAATTGCAGTGCTAG | -0.448 |

Series 3 — technique: RNAcompete; form: RNA; matrix: in vitro; concentration: 20 nM; notes: 7-mer, probes averaged, single round; reference: mean of 7-mers; direction: higher = stronger binding
Target: PABPC1L2, full length, GST fusion (mouse, UniProt A0ABA7IW68)
Residues (chain): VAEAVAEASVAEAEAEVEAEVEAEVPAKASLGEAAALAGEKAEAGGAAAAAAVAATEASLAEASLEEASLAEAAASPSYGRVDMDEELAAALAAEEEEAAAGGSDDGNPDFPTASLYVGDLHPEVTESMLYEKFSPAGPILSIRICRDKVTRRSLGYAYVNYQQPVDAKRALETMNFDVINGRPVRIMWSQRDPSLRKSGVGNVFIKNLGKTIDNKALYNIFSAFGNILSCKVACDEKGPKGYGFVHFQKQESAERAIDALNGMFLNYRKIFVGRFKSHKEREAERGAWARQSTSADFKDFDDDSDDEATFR
| Oligonucleotide | 7-mer Z-score |
| --- | --- |
| CGCAGAU | -0.166 |
| AUCAUAC | -0.202 |
| AUCGCAG | -0.166 |
| UAGAUUU | 0.0134 |
| UUGAUGA | -0.18 |
| ACCACUC | -0.235 |
| UGGAGAA | 0.254 |
| GGGCCGC | -0.0989 |
| CAUUCCC | -0.402 |
| ACAGUGA | -0.115 |
| GUCAUGU | -0.307 |
| CGAGGCA | 0.0768 |
| GGAUUGC | 0.115 |
| ACUUAGC | -0.135 |
| UGCCAGC | -0.2 |
| UUAGGUA | -0.0554 |
| UCCAGCC | -0.414 |
| CAUGUGA | -0.021 |
| UUUGUUU | -0.438 |
| AUUACGC | -0.204 |
| ACAUGAU | -0.0138 |
| CACCCUU | -0.173 |
| ACCGUCC | -0.36 |

Series 4 — technique: RNA Bind-n-Seq; form: RNA; matrix: in vitro; concentration: 365 nM; reference: no-protein control; direction: higher = stronger binding
Target: RNA binding protein fox-1 homolog 2, RRM domain, GST-SBP tag (RBFOX2, Homo sapiens, UniProt O43251-10, residues 100-194)
Notes: natural RNA segment, single round, ends assumed
Shared flanks, not repeated: GGGAGUUCUACAGUCCGACGAUC … UGGAAUUCUCGGGUGCCAA
Target sequence (chain): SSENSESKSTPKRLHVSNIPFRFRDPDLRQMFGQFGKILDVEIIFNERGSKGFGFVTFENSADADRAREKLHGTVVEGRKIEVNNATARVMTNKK
| Oligonucleotide | RBNS enrichment (R) |
| --- | --- |
| AUACUUUCUCUUUUUUAUAUGAUGUCUAACAAAAAAAAAAUACAGCUCCAACAUUUUGAUUCCUGUUAAUUUUGUUCUUUAAUUAAAUGACUACUUAUUACAGGAAAUGA | 1.15 |
| GGCAGGAUCUGCUACAAGGGUAAAGCUGGCCCUUGGAACUACAAUCCUGAGGAAGUCCGAGCUGUCCUGGAAAAGCUUUGCACUCCACCUAGACACGUGCCUCAGCUCUA | 0.374 |
| CUCGCCAGUCUCUGUGAGCCUAGGCCCUGAGCUGGGGAGGUGGGGAAGAUUCGGGCAUGUGAGUGCCCCCAGAACUGUCCUGGCUCCUUCCGUAUUAAACGCAUUUGCAU | 0.627 |
| AGAGUCAAAGUGGCUUUCUACGCCCAGUACGCCAACUGAGUCUGCCCUCGGGAGGUGGCCCAUUAUUGCUGGGAUGCGGUGUUGGUAAAGGUUUCCAGGACUGAAACUUU | 0.436 |
| GGCUGGAAUCCCGCCCCUAUGGUACCCUCCAGGCCAGCGCCACCGCCUCCGACAGUGUCCUCGCUCUACCUCUGACCUCUCCGGAGGUUCCGCUGCCUCCAAGCCGGACU | 0.443 |
| GCAGGAUAGGCAAAGCUGUGGAAUGUACAUUUCCUGGAUGUCAGGGGUGACCAAAACAGUACAUCAGUUCCUGAGAUAUUCAAGCAAAUGCCCCCGAUAGCAUAGUGUGU | 0.262 |
| AGAGAGAUUGAAACAGAAUAAACGGGCUGUUCUUGAAGAAGCAAAACCAGAAUAUGCAUUACUUUGGUUUAAUACUUAGUGCUAACAUUGAAACUGUUGGUGGUGAUGGA | 0.504 |
| UUUGCUCUUUCAGCUAUUCUAGAGUGGCCUGUGAGCAAAUGAACUUCUCUCUCUCUCUCUCUCUCUCUCUCUUUCUUUCUCUCUCUCUCUCCCUUCCUUCCUUCCUUCCU | 1.01 |
| UGAAAUCUUUUUCUCGUUUAGUUGCUCUGUGGGAAAUGUGAGGAAGCCUAAGUUUGUAUUUGUAAAUUUCUUAUGCCAUCCUCUAGUCAAAUUUUUUUUCAUUGUUUAAA | 1.01 |
| GCCCCACGGCUGAAGCUGCAUCUGAUGAAACUGAUGGGUACUGCUUGUCCCUCAGCUCACACUUGGCGGUGGCCUCUCGAUCACUCUGGGUCUUGGGAGCUCUUGCCUUC | 1.51 |
| UUAUAUAGAUAAUUCUUGACUGUAAAACAUUUUGACCAGUGUUUUACAACAUGUACAUAAGAAUACACAUAAUUCAACUAGAGAUUUGAAGAAUUGGCUUGUAUAGUUAU | 0.46 |
| CACCUGCCCCUGCCUCUGAUCCAGAGUGCUGGGGUUACAGGUGACCCCAACCAUAACCAGUUCAUUUUUUUCCUUUUUUUUUUUUGAAAUGCACAUCUACCUCUUCCCUG | 0.785 |

Series 5 — technique: universal PBM; form: double-stranded DNA, one strand shown; matrix: in vitro; concentration: not given; direction: higher = stronger binding
Target: Sal-like protein 4, full length isoform B (SALL4, Homo sapiens, UniProt Q9UJQ4-2, residues 1-616)
Notes: 8-mer, flanks averaged, mean of replicates
| Oligonucleotide | E-score |
| --- | --- |
| GTCATAGA | 0.101 |
| AAAATAAA | 0.371 |
| AATACCAG | 0.0794 |
| GTGGGGGA | -0.0299 |
| ATACGAAA | 0.202 |
| ACCCGGTC | -0.377 |
| AAGAACTT | 0.0764 |
| AAGACTGG | -0.00181 |
| AGTCTAAC | -0.0673 |
| GGGATAAC | 0.0294 |
| CATCCCAC | -0.242 |
| CATAATCC | 0.274 |
| GGATATAC | 0.139 |
| GCACTTTA | 0.174 |
| CATGTGGC | 0.00171 |
| ACATCCCC | -0.137 |
| AAGACGAT | 0.0977 |
| CTACATAC | 0.265 |
| CAATGGTA | 0.14 |
| GGCTGGCA | -0.274 |
